Assay results collected from several papers.
Parts stem from different laboratories: compare values within a part only.

Series 1
Target: Interferon regulatory factor 7, full length, phosphomimetic (IRF7, Homo sapiens, UniProt Q92985, residues 1-503, S471D/S472D/S475D/S476D/S477D/S483D/S484D/S487D)
Technique: protein-binding microarray
Molecule type: double-stranded DNA, one strand shown
Medium: in vitro
Concentration: 2200 nM top
Notes: 60-bp whole probe
With: salmon DNA 0.4 mg/ml
Reference: random background probes
Reading: higher = stronger binding
Shared flanks, not repeated: GCCTAGCAC … GTCTTGATTCGCTTGACGCTGCTG
Construct (chain): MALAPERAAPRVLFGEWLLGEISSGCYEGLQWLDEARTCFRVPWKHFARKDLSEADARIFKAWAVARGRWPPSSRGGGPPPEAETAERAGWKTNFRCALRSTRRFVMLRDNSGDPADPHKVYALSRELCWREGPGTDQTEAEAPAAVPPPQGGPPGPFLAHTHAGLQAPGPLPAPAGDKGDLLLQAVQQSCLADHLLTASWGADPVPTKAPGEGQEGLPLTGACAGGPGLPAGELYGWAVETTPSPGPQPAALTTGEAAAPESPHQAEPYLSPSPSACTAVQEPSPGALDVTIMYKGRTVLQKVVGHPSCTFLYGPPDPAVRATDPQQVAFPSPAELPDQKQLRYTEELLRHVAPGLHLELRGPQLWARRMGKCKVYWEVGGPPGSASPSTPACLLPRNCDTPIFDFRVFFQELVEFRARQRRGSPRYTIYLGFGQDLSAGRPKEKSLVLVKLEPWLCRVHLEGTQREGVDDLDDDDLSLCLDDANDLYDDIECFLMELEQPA
`TCACCTACAGGTTCTCTGACTGTGCTA` — result for “fitted relative affinity”: 0.726 z-score.
`TCACCTTTCCAAATACCACTGTGCTAG` — result for “fitted relative affinity”: 2.87 z-score.
Under “fitted relative affinity”, `TTGGGTATCGACACTGGGTTAGTGCTA` is recorded as 0.278 z-score.
`GACGATCTCTGACTGGAGACGTGCTAG` — result for “fitted relative affinity”: 0.0179 z-score.
`TTAGGTTTCCGTTTCCTTTAGTGCTAG` — result for “fitted relative affinity”: 6.72 z-score.
`TCAGTCACCCATCTCAAACTGTGCTAG` — result for “fitted relative affinity”: 0.909 z-score.
`GACGATATCAGTGTCGAGACGTGCTAG` — result for “fitted relative affinity”: 0.193 z-score.

Series 2
Target: Histone acetyltransferase KAT6A, winged helix 2, GST fusion (KAT6A, Homo sapiens, UniProt Q92794, residues 85-181)
Technique: protein binding microarray
Molecule type: double-stranded DNA, one strand shown
Medium: in vitro
Concentration: not given
Notes: 8-mer, flanks averaged, mean of 2 arrays, mostly near background
Reference: not given
Reading: higher = stronger binding
Residues (chain): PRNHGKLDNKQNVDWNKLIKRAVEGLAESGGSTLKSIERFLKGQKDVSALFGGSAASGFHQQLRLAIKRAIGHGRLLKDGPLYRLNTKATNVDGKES
`AGGCTATG` has an E-score of -0.134.
`AGAGTTAC` has an E-score of -0.203.
For `AGTAAAAC`, the E-score was -0.0117.
`CCTTCCAG` has an E-score of -0.0439.
`AAATCGAT` gave an E-score of 0.0964.

Series 3
Target: Prothrombin, mature alpha-thrombin (F2, Homo sapiens, UniProt P00734)
Technique: aptamer microarray, sandwich
Molecule type: DNA with 2'F-ANA
Medium: in vitro
Concentration: 200 nM
Notes: whole 15-mer aptamer, many near background
With: Cy3 exosite-II aptamer, 400 nM
Reading: higher = stronger binding
Sequence: GGTTGGTGTGGTTGG
`2'F-ANA at 3 4 9 13 14` — result for “mean fluorescence intensity”: 290 a.u.
Under “mean fluorescence intensity”, `2'F-ANA at 2 3 4 5 6 8 9 15` is recorded as 90.8 a.u.
For `2'F-ANA at 2 3 4 5 7 8 11 13`, “mean fluorescence intensity” read 69.6 a.u.
For `2'F-ANA at 4 7 11 12 13 14 15`, “mean fluorescence intensity” read 103 a.u.
`2'F-ANA at 1 2 3 4 7 8 11 13 14` — result for “mean fluorescence intensity”: 75.3 a.u.
`2'F-ANA at 3 4 8 9 13 14 15` — result for “mean fluorescence intensity”: 270 a.u.
For `2'F-ANA at 2 5 7 13 15`, “mean fluorescence intensity” read 88.3 a.u.

Mixed results
The fold induction of `PhoQ, residues 284 288 289 292 302 303 SCCLKL` is reported as 28.7 (PhoP, residues 12 14 15 18 19 NMSSL (Escherichia coli, UniProt P23836); Sort-seq, measured: YFP reporter; E. coli; PhoQ-PhoP variant library, with: 10 µM Mg2+; reference: high Mg2+ state, higher = stronger signaling).
